Experimental data from different studies.
Lines come from different studies, so protocols differ.
Read-out: cell growth or viability

| Structure (SMILES) | cell line | technique | concentration | time | viability [%] |
| --- | --- | --- | --- | --- | --- |
| Cc1c(Cc2ccccc2)c(=O)oc2c(C)c(OCC(=O)NN=Cc3ccc([N+](=O)[O-])cc3)ccc12 | MDA-MB-231 | MTT | 62.5 µg/mL | – | 32.7 |
| CC(=NNC(=O)c1ccccc1Cl)c1ccc(Nc2nnc(-c3ccc(Cl)cc3)c3ccccc23)cc1 | HepG2 | MTT | 5 µM | 24 h | 3.49 |
| NC(=S)NN=C(CS(=O)(=O)c1ccccc1)c1ccc(F)cc1 | SK-MEL-23 | MTT | 0.4 µM | 48 h | 77.3 |
| COc1ccc(NC(=O)c2c(Nc3ccccc3)sc(C(=O)NN=Cc3ccccc3)c2NC(C)=O)cc1 | HCT-116 | SRB | 10 nM | 48 h | 93.5 |
| CCc1c(C)c2ccc(OCC=Cc3ccccc3)c(C)c2oc1=O | MDA-MB-231 | MTT | 31.25 µg/mL | – | 100 |
| COc1ccc(NC(=O)c2c(Nc3ccccc3)sc(C#N)c2NC(=O)CNc2ccccc2[N+](=O)[O-])cc1 | HCT-116 | SRB | 100 µM | 48 h | 86.5 |
| C=CCNC(=S)NNC(=O)COc1ccc2c(C)c(CC)c(=O)oc2c1C | MDA-MB-231 | MTT | 125 µg/mL | – | 20.4 |
| CC(C)(C)c1nc(-c2cccc(NS(=O)(=O)c3c(F)cccc3F)c2F)c(-c2ccnc(N)n2)s1 | SK-MEL-23 | MTT | 1.6 µM | 48 h | 61.8 |
| O=C(Nc1ccccc1)Nc1ccc(Oc2nnc(-c3ccc(Cl)cc3)c3ccccc23)cc1 | HepG2 | MTT | 10 µM | 24 h | 4.83 |
| COc1ccc(NC(=O)c2c(Nc3ccccc3)sc(C#N)c2NC(=O)CNc2ccc(OC)c(OC)c2)cc1 | HCT-116 | SRB | 100 µM | 48 h | 50.3 |
| CC(=O)Nc1cccc(-n2c(=O)n(C3CC3)c(=O)c3c(Nc4ccc(I)cc4F)n(C)c(=O)c(C)c32)c1 | SW1417 | resazurin | 0.1 µM | 72 h | 51.1 |
| COc1ccc(NC(=O)c2c(Nc3ccccc3)sc(C#N)c2NC(=O)CNc2ccccc2Cl)cc1 | HCT-116 | SRB | 1 µM | 48 h | 54.5 |
| CCCOc1ccc2c(C)c(CC)c(=O)oc2c1C | MDA-MB-231 | MTT | 62.5 µg/mL | – | 99.8 |
| O=C(Nc1ccc(Oc2nnc(-c3ccc(Cl)cc3)c3ccccc23)cc1)c1ccccc1 | HepG2 | MTT | 0.312 µM | 24 h | 32.5 |
| COc1ccc(NC(=O)c2c(Nc3ccccc3)sc(C#N)c2NC(=O)CNc2ccccc2)cc1 | HCT-116 | SRB | 0.1 µM | 48 h | 81.2 |
| Cc1c(Cc2ccccc2)c(=O)oc2c(C)c(OCC(=O)NN=Cc3ccco3)ccc12 | MDA-MB-231 | MTT | 250 µg/mL | – | 1.83 |
| O=C(Nc1ccc(Oc2nnc(-c3ccc(Cl)cc3)c3ccccc23)cc1)c1cccc([N+](=O)[O-])c1 | HepG2 | MTT | 2.5 µM | 24 h | 3.63 |
| COc1ccc(NC(=O)c2c(Nc3ccccc3)sc(C(=O)NN=Cc3ccc(Br)cc3)c2NC(C)=O)cc1 | HCT-116 | SRB | 10 nM | 48 h | 91.3 |
| CC(=O)Nc1ccc(Oc2nnc(-c3ccc(Cl)cc3)c3ccccc23)cc1 | HepG2 | MTT | 78 nM | 24 h | 99.4 |
| COc1ccc(NC(=O)c2c(Nc3ccccc3)sc(C(=O)NN=Cc3ccc(OC)c(O)c3)c2NC(C)=O)cc1 | HCT-116 | SRB | 100 µM | 48 h | 29.1 |
| CC(=NNC(N)=S)c1ccc(Nc2nnc(-c3ccc(Cl)cc3)c3ccccc23)cc1 | HepG2 | MTT | 0.625 µM | 24 h | 7.6 |
| Cc1ccc(C(CS(=O)(=O)c2ccccc2)=NNc2nc(-c3ccc(OCCCCOc4ccc(-c5csc(NN=C(CS(=O)(=O)c6ccccc6)c6ccc(C)cc6)n5)cc4)cc3)cs2)cc1 | SK-MEL-23 | MTT | 0.4 µM | 48 h | 75.9 |

Excerpt of the above:
| Structure (SMILES) | cell line | technique | concentration | time | viability [%] |
| --- | --- | --- | --- | --- | --- |
| O=C(Nc1ccc(Oc2nnc(-c3ccc(Cl)cc3)c3ccccc23)cc1)c1cccc([N+](=O)[O-])c1 | HepG2 | MTT | 2.5 µM | 24 h | 3.63 |
| COc1ccc(NC(=O)c2c(Nc3ccccc3)sc(C(=O)NN=Cc3ccc(Br)cc3)c2NC(C)=O)cc1 | HCT-116 | SRB | 10 nM | 48 h | 91.3 |
